Measured values pooled from the literature.
A part holds a random share of what one study measured. Changes are numbered by the printed parent chain.

Block 1
Target: Sal-like protein 4, full length isoform A (SALL4, Homo sapiens, UniProt Q9UJQ4, residues 1-1053)
Sequence of UniProt Q9UJQ4 (whole entry, looked up): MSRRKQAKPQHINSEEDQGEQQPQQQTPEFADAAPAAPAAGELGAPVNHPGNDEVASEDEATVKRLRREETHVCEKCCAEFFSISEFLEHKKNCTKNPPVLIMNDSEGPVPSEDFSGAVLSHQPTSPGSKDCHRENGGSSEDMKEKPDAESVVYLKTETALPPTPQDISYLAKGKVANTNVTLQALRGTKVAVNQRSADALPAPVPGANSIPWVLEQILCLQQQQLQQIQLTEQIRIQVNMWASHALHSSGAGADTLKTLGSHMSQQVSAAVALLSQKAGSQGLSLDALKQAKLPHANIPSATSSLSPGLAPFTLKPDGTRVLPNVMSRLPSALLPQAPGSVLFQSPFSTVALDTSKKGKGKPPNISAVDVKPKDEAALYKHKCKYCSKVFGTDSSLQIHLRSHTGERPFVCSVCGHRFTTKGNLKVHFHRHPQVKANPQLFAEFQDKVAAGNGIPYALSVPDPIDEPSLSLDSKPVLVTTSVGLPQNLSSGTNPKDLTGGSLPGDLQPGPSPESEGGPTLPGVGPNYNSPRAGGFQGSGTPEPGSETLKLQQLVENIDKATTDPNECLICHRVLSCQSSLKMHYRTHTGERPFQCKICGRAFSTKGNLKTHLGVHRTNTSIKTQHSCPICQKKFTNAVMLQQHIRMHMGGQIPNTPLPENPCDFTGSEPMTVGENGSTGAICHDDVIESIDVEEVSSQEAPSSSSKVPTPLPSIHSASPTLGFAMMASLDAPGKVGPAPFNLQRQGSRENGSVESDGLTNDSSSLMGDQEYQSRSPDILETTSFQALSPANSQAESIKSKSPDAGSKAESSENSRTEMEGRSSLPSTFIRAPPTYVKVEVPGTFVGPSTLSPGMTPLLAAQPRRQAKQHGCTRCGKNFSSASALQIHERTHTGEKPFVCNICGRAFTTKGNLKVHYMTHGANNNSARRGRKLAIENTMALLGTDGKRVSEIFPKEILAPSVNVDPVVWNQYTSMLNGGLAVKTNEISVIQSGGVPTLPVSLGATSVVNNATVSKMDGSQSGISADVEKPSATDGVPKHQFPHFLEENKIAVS
Method: universal PBM
Form: double-stranded DNA, one strand shown
Medium: in vitro
Tested at: 600 nM
Notes: 8-mer, flanks averaged, mean of replicates
Direction: higher = stronger binding
| Sequence | E-score |
| --- | --- |
| AATAGGAA | 0.279 |
| CAGCCATG | -0.103 |
| CTGACGGC | -0.197 |
| AACTCATA | 0.252 |
| AGTCCGCG | -0.224 |
| AGCGCGGC | -0.315 |
| GCCCCCAC | -0.349 |
| CCTTGTTA | 0.257 |
| AAAAGTGT | 0.0396 |
| AGACGGGA | -0.179 |
| ATGTACAT | 0.335 |
| ATACTACC | 0.0598 |
| AGTTCCAC | -0.00811 |

Block 2
Target: RNA binding protein fox-1 homolog 2, RRM domain, GST-SBP tag (RBFOX2, Homo sapiens, UniProt O43251-10, residues 100-194)
Method: RNA Bind-n-Seq
Form: RNA
Medium: in vitro
Tested at: 365 nM
Notes: natural RNA segment, single round, ends assumed
Baseline: no-protein control
Direction: higher = stronger binding
Constant ends, left off below: GGGAGUUCUACAGUCCGACGAUC … UGGAAUUCUCGGGUGCCAA
Target sequence (chain): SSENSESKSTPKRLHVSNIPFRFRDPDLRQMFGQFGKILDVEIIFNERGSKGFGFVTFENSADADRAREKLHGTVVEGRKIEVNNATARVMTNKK
| Sequence | RBNS enrichment (R) |
| --- | --- |
| GCAAAGCCUAGCCUGCAUAUCAUUCACCCAAAACAAAGUAAUAGCGCCUCUUUUAUUAUUUUGACUGAAUGUUUUAUGGAAUUGAAAGAAACAUACGUUCUUUUCAAGAC | 0.659 |
| UACAAAUGAUUAUUCCGACAGUGUGUCGACAUAAACUUUUACAACUGCACAGCAGCCAAAAAAAGAAAAAAAAAAGAAAAAAAACUUUAACUGGAUGGACGUUGUUAGGG | 0.384 |
| UGACAUUCUAUCAGCCCAACCCUCAUUCUGCAGGGCCACCUGGUGUGUGGAGGUGGCGGGAGGGGUCAGUGACUCUGGGGGUCUCCUCAGUGACCCCCAUACCUCAUCAU | 0.237 |
| UCUGGAGGCCGGGGGUUCUCAGACCUACCAGUUUCCCUUUAGAAGAACAAAUUUCCAGUUCCUCUAGGGCCUCCUGCCUUUCCUUUCUUUCUGUCAAUUUUGUUGUUGUU | 0.451 |
| GCUGGUGUGCACAGGGGCAGGCAGGUCAGCUGGCCUGGGGAAGAGCAUUGUGGCUCCUAGUGCAGCCCUGCUUCCACUCUUGGUUUAGCUGGAACCUUCCCACUCAUGGA | 0.595 |
| UGAGGAGUAAACCUCUCUGGCACACUGAGCAUGGUCAGGGCAUUGGUCAGAGGGACAGAGCAAGGAAUGCAUCCUGAGCCCACAGCUUUGACCACUGUGAUCCAGAAGAG | 0.907 |
| CAAACCUUUUCAGCACUUCUCUCAGAGCAAAUGGAAACACACAGUAAGUAGCUUUCUGACUACAUUAUUUUCUGGUCACUUUUAAAGAAAGUUUACAACCUGUUCUGAAA | 0.365 |
| GUGUGUGUGUGUGUGAGCGAGCAUGUGCUGUCUGCAUAUGGAAAUAACUACAGCACAGGCUACCUUGCUGAUGUGUCCAUGUCACUGGUCUCCCUUUUAGCUAAAAUCUG | 1.34 |
| AAAUAUUUCUGUAACUUAAGAAACCUGACAUUUAUGUCAUAUUUUCUCUUUAGGUAAGAUUUGGUUUGUUUGUGUCUUGUUUGUUUCCCUCUCCAAAUUCUUCCUUCUUU | 0.921 |
| UAAAAAUAAACUAGUAAAAGAUUAUCAUGUUUUAUGACCAUCAACGGAAUCAUUUUAAUGUGUUCCUCAGAACGUAUGUAUUGACUUCUACAAUAAAUGACUGGCUGGUG | 0.431 |
| AUGAUUUGUGGCAUCUCAACCAAGGGCCCCUGUGUGUGUGUGUUUGUGUGUGUGUACACAUAUCUGUGCCUGUGUGUCUUCCCUUGUGUCCAUAUUUAAUGUGUAAGAAC | 1.2 |
| GGGGAGAGACUGGACUCUAGCCAGGCAGUCUUGUGCCGGCACGCACAGCUGCACGCACGCAUGCAAGUUCACAGCGCAGGCACCCCCAGCUCGCCUGGAUCUGACUCCAA | 10 |

Block 3
Target: CCND2, cyclin fold, Cln2 fusion (human)
Method: yeast growth competition, sequencing
Medium: yeast
Notes: weak parent motif
Baseline: not given
Direction: higher = stronger binding
Parent: WEE2 docking peptide (human); KELRQKLNFSYCE; partner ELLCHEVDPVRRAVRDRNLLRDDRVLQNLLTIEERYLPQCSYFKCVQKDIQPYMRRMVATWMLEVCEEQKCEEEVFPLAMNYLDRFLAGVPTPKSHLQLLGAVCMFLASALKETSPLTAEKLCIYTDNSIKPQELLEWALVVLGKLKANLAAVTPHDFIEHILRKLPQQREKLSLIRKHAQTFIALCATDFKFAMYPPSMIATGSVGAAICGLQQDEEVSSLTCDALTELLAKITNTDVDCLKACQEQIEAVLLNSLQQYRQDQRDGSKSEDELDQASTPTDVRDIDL
| Change | normalised enrichment score |
| --- | --- |
| KELRQKLNFAYCE [S10A] | 0.0376 |
| KALRQKLNFSYCE [E2A] | -0.0117 |
| KELRQKANFSYCE [L7A] | -0.193 |
| KEARQKLNFSYCE [L3A] | -0.253 |
| KELRQKLAFSYCE [N8A] | 0.081 |
| AELRQKLNFSYCE [K1A] | -0.142 |

Block 4
Target: RING finger protein unkempt homolog, zinc fingers 1-6, GST-SBP tag (UNK, Homo sapiens, UniProt Q9C0B0, residues 30-357)
Method: RNA Bind-n-Seq
Form: RNA
Medium: in vitro
Tested at: not given
Notes: RNA with constant flanks, human and mouse sites, ends assumed
Baseline: input RNA pool
Direction: higher = stronger binding
Constant ends, left off below: GGGAGUUCUACAGUCCGACGAUC … CAACAGAGGAUUGAGCAUCA
Residues (chain): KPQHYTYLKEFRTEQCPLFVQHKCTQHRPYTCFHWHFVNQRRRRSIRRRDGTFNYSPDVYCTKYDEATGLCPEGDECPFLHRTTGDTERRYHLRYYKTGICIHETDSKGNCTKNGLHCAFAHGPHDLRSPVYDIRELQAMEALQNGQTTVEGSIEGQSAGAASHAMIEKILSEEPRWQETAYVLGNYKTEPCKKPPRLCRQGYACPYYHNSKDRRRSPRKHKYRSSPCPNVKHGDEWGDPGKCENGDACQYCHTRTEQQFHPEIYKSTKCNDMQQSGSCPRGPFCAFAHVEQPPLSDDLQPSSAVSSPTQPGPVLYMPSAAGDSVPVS
| Sequence | bound/input enrichment [ratio] |
| --- | --- |
| GUGUCACCUGCAGUGCCCAUCUACAAUGCAAUUAUGUUUCUCUUUGUGUUGGCCAACUUCAGCAUGGCCACCUUCAUGGACCCAGGGAUUUUCCCUCGAGCUGAGGAGGAUGAGGACAAG | 0.16 |
| UUCCAGUCAUCUACCGCCCUUUUGUGUUCACCUCUUUUACCCUCCAAUCAACUUCCCAGGUUAGCCCAUCAGUCUGCCAUCUGUCCCUCUGCCCACUGAUCCAUCCAUGUAUGCCCUUGC | 0.646 |
| GACUAAGAGAACACCCAAACAUUUCCAAACUGGACGCUUGUGCAGAAAAUGUCCAUAACCGCAUGUGGCCUUGAGGACUCGGGCAAGGACAAGCACAUGUAUACUCGGAGAGAGCAGAAA | 0.135 |
| UCCCUUCCCCUGGAGCACAACUUUACUUUCUGUGUCUCUGUUUUGCACAAUAAGAAACUCAGUAGGCAAAGGUUGUGUUUUUUUUUUUGGUAAGUUCACUUGCUUUUUAAAAUUUUUAUU | 0.341 |
| UCAGAGUGGGGUUUUUCUCAAUUUCCUUGGAACUGAUUAAAAAGAAAUACAACAUCAUCAAUAGAUUACAUUAUUCCCUGUGCGGGAUCCAGUUCAAUACGAUGCAUGAGACAUGCUGCA | 0.778 |
| GCAUCACAGAGUGAACUGCCAUUAAGACAUCCAAGGUUUUAUCCAAAGCUGUUUGCUGGUAUUAGACAGAAGGCAGUGUCGAGCAGCCCUUCUGGAAAUGUUGCAUGGCCAGUGCUCUAG | 0.169 |
| UCUUGGUCUCCAAAUCCUACACCUUACUUUGAAACACCACUGGCUCCCUUUCCCAAUGGUAGUUUUGUGAAUGGCUUUAAUUCGCCAGGAUCUUAUAAAACAAAUGCUGCUGCUAUGAAU | 0.802 |
| GAUGUCUCAUCCAUCUACCGAGUCCCCUUGUUGUUAGAGGAGCAAGGGGUUGUAGAUUAUUUUCUUCGAAGACUUGACCUUCCUAUUGAGAGGCAGCCAAGAAAAAUGCUGAUGAAAUGG | 0.263 |
| AUCCAUUCUACUCCUUGGAAAUGCCUAUCAGAUGCGAGCUGUUUGAUCAAAACCUGAAGCUAGCUCUAGAGGUGGCAGAGAAGGCUGGCACUUUUGGACCUGGGUCAUAGGAUGAACCUG | 0.192 |
| GAGUUCCAUCUUUUCUCUAGGAAGGUAGAAGAGAUUUUGAAGGAGAAGAAUGUUUCAUAUGUUAGUGCAAUUUCCACACCUAUCUUUUCAGCACAAGAGAAGAUGAAUCGCCUUUCUGAG | 0.144 |
| UCGUGUCAGGGCAGGCUUCCUGUCUCAGCCUUCUGAGUAUUGGGAUUACAGUUGUCUGCCUAGCUGAUGUCCUGUCUUCUUUCAGCAGAGGCAUGUGCACCCAACAUGCACAUGAUUAAG | 0.087 |

Block 5
Target: Prothrombin, mature alpha-thrombin (F2, Homo sapiens, UniProt P00734)
Method: aptamer microarray, sandwich
Form: DNA with 2'F-ANA
Medium: in vitro
Tested at: 200 nM
Notes: whole 15-mer aptamer, many near background
Together with: Cy3 exosite-II aptamer, 400 nM
Direction: higher = stronger binding
Sequence: GGTTGGTGTGGTTGG
| Modification | mean fluorescence intensity [a.u.] |
| --- | --- |
| 2'F-ANA at 1 3 6 7 11 12 15 | 384 |
| 2'F-ANA at 2 3 5 7 8 10 15 | 52.2 |
| 2'F-ANA at 1 4 5 6 11 12 13 14 | 46.9 |
| 2'F-ANA at 1 3 6 8 10 11 12 | 91.9 |
| 2'F-ANA at 2 4 5 6 8 10 12 13 14 | 46.7 |
| 2'F-ANA at 1 3 4 6 7 9 10 12 13 14 15 | 54.8 |
| 2'F-ANA at 2 3 4 5 7 8 10 13 14 15 | 57.9 |
| 2'F-ANA at 3 4 6 7 8 10 | 290 |
| 2'F-ANA at 2 5 9 10 14 | 43.8 |
| 2'F-ANA at 3 4 6 9 12 | 886 |
| 2'F-ANA at 3 5 6 8 9 13 14 15 | 56 |
| 2'F-ANA at 2 6 7 9 10 12 13 | 146 |
| 2'F-ANA at 1 3 6 8 9 10 11 12 13 14 | 65.5 |
| 2'F-ANA at 2 4 5 8 10 12 13 14 | 43.4 |
| 2'F-ANA at 3 5 10 12 13 15 | 60.8 |
| 2'F-ANA at 2 3 4 7 9 10 11 14 15 | 169 |
| 2'F-ANA at 2 4 5 6 9 14 15 | 46.5 |

Block 6
Target: Histone acetyltransferase KAT6A, winged helix 2, GST fusion (KAT6A, Homo sapiens, UniProt Q92794, residues 85-181)
Method: protein binding microarray
Form: double-stranded DNA, one strand shown
Medium: in vitro
Tested at: not given
Notes: 8-mer, flanks averaged, mean of 2 arrays, mostly near background
Baseline: not given
Direction: higher = stronger binding
Target sequence (chain): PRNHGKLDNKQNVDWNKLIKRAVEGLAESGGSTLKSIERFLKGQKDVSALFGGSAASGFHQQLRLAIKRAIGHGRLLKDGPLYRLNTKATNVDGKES
| Sequence | E-score |
| --- | --- |
| CAGCAACG | 0.0558 |
| CGATGACG | 0.0279 |
| TCCTCAAA | 0.00522 |
| ATCAGTGA | 0.0973 |
| GAACAATA | 0.268 |
| ACTTCGTG | 0.109 |
| CTGGTTAA | -0.041 |
| AAGGGCAA | 0.132 |
| TAGATTAA | 0.166 |
| CCATGCTC | 0.108 |
| AGAAGCCG | 0.214 |
| CCACTGTA | -0.0862 |
| GGAGCTGA | -0.0391 |
| ACATTGTG | -0.143 |
| CATTTGGA | 0.0511 |
| AGTTCTAT | -0.0433 |
| ACGCCCCG | 0.0878 |
| TAGATATA | -0.179 |

Repeated from above (block 5):
| Modification | mean fluorescence intensity [a.u.] |
| --- | --- |
| 2'F-ANA at 2 5 9 10 14 | 43.8 |
| 2'F-ANA at 3 4 6 9 12 | 886 |
| 2'F-ANA at 3 5 6 8 9 13 14 15 | 56 |
| 2'F-ANA at 2 6 7 9 10 12 13 | 146 |
| 2'F-ANA at 1 3 6 8 9 10 11 12 13 14 | 65.5 |
